Assay results pooled from the literature.
Parts stem from different laboratories: compare values within a part only.

Sample 1
Target: RNA binding protein fox-1 homolog 2, RRM domain, GST-SBP tag (RBFOX2, Homo sapiens, UniProt O43251-10, residues 100-194)
Method: RNA Bind-n-Seq
Form: RNA
Sample: in vitro
Concentration: 365 nM
Notes: natural RNA segment, single round, ends assumed
Baseline: no-protein control
Direction: higher = stronger binding
Construct (chain): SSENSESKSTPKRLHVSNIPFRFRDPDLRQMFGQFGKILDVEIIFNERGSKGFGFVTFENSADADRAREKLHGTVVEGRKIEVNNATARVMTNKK
Oligonucleotide | RBNS enrichment (R)
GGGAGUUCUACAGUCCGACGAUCCAGUCAGCCCAGGUCUCUAGAGUGUCCAGCAGAGGAUGGAGCCCUCGGGAUGUUUCAGCUCACACAUCCUUGAGUGACUUCCCAUAUGUGUGUGGGGCUGAAGCGGCUUCUGGAAUUCUCGGGUGCCAA | 0.61
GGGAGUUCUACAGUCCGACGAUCGAUUGUUGUCAUUUGGCUCUGCAGCUUGUUUUGUCGUCUGUGUCUGUCUGAGGAACCUGUGUGUCCAGAGCCACAUGAAAUGUGAAUGAUUGUUGGCAAUAUAAUCUUGAUGGAAUUCUCGGGUGCCAA | 2.25
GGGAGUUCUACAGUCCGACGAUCACUUGCUACUAGUGUUGUUAAUGAAGUAUAGGCCUUGGAACAUUUAAGAAAACUGGUCUUCAGAUAGUUAAGGGCUUGGGAUAAUUUAAGUGAAAAGUGAGAUCAGUAAUUGGAAUUCUCGGGUGCCAA | 1.28
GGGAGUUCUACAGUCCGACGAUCCUGCCUGCUAUGAGGGGUGGAUACUGUUCCAGAUCUUUGGGGGAAUUGUUACCUCCUGUUGUUUUGUUACUGAGUAAGAUAACUUUGUUGAAUAAAGACCUUUAUCCCCAUGGAAUUCUCGGGUGCCAA | 1.57
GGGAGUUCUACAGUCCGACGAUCGACGCAAAUGAUGUUUAAGAGAGCCUUGUGAUUUGUAGCAAGCAUGGGCACUGCUUUUUCUUACUAAUGUGGUAGAUCUACACGAACAUUCUAGGCUGUUCUGCUCAGAGUGGAAUUCUCGGGUGCCAA | 0.785
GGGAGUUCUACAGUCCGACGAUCUAAGUUAACAAGUCUAUAUCAGGUGCAGCUGGCUUUGAUUAAAGGCCAUUUUUAAAACUUAAAAACUCAACACCUCACAGAUUAUAAUAGAAAAAGAAAUGGCCUCAGUUUGGAAUUCUCGGGUGCCAA | 0.432
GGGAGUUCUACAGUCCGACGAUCCACUUCUCUUUCCCAGCCCUAGUUCUGGGUUCCCCAGUGGGGCAAGGGGUGGUGGAGGCAGUGCCCAUGCUGGGCUGAGCCUGCAGUUUUUGUGAGCUCUGGGCUUGUCUUGGAAUUCUCGGGUGCCAA | 0.396
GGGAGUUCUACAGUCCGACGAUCUUCUGGGUUGAAUUUUUUAAAAAUCAGGUACCACUUGAUUUCAUAUGGGAAAUUGAAGCAGGAAAUAUUGAGGGCUUCUUGAUCACAGAAAACUCAGAAGAGAUAGUAAUUGGAAUUCUCGGGUGCCAA | 0.323
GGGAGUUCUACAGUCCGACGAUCAAGACGCCAAUCGCCCGUACUGAGCGCCGGCGGGAGCGUCCCCCGGGGGAGACCAGGACUCGCACAGGGCAGGAUGCUGAACGGGCUACAUUAAAAAACAAACCUCUCUCUGGAAUUCUCGGGUGCCAA | 0.423
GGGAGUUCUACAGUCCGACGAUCAUUAGCAUGUUUGCAUAGCAACCAGUCAAGAGCAUUUACACUAUUUCUGCUGAUAUACUCACCUUAGAACUGCUCAGAACCCUGGUGCUUUAUUUUUGUUUUAAUCUUUUUGGAAUUCUCGGGUGCCAA | 4.14
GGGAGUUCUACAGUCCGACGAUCUAGUGCCUGGAUCAAUGAGAUGGACACUAAUGCUGCUUCUUUAUAAUAAUAGUACCUAAGAGUAUUGAUGGUUUUCAUUUUUCAACCAGCACUCUAAUGCACAGCUGCUGUGGAAUUCUCGGGUGCCAA | 0.341
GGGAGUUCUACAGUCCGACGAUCCUGGGGAAAGUGCAUUUGGCCAAAUGAAAUGGUAGUCAAGCCUAUUGCAACAAAGUUAGGAAGUUUGUUGUUUGUUUAUUAUAAACAAAAAGCAUGUGAAAGUGCACUUAUGGAAUUCUCGGGUGCCAA | 1.42

Sample 2
Target: UBE2E2 UBC core domain (UniProt Q96LR5)
UniProt Q96LR5, sequence (whole entry, looked up): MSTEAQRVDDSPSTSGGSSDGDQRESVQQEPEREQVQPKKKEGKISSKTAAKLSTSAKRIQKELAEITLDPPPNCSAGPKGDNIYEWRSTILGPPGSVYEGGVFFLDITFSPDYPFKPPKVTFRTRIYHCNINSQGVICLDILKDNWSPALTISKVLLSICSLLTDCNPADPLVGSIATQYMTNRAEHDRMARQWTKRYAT
Method: yeast two-hybrid
Sample: yeast
Notes: mostly zero background
Baseline: not given
Direction: higher = stronger interaction
B1: RNF115 RING domain (UniProt Q9Y4L5); chain TQEQVDMGLECPVCKEDYTVEEEVRQLPCNHFFHSSCIVPWLELHDTCPVCRKSLNGEDSTR
B2: TRIM2 RING domain (UniProt Q9C040); chain VRQIDKQFLICSICLERYKNPKVLPCLHTFCERCLQNYIPAHSLTLSCPVCRQTSILPEKGV
B3: TRIM68 RING domain (UniProt Q6AZZ1); chain LVEAIVEEVACPICMTFLREPMSIDCGHSFCHSCLSGLWEIPGESQNWGYTCPLCRAPVQPRNLRP
B4: RNF130 RING domain (UniProt Q86XS8); chain DKETDPDFDHCAVCIESYKQNDVVRILPCKHVFHKSCVDPWLSEHCTCPMCKLNILKALGIV
B5: RNF10 RING domain (UniProt Q8N5U6); chain VRICSHEVPSCPICLYPPTAAKITRCGHIFCWACILHYLSLSEKTWSKCPICYSSVHKKDLKS
B6: RNF11 RING domain (UniProt Q9Y3C5); chain RDGSEKKIRECVICMMDFVYGDPIRFLPCMHIYHLDCIDDWLMRSFTCPSCMEPVDAALLSS
B7: TRIM47 RING domain (UniProt Q96LD4); chain MDGSGPFSCPICLEPLREPVTLPCGHNFCLACLGALWPHRGASGAGGPGGAARCPLCQEPFPDGLQLR
B8: PJA2 RING domain (UniProt O43164); chain DHTAIGQEQCCPICCSEYIKDDIATELPCHHFFHKPCVSIWLQKSGTCPVCRRHFPPAVIEA
B9: RFPL3 RING domain (UniProt O75679); chain MAALFQEASSCPVCSDYLEKPMSLECGCTVCLKCINSLQKEPHGEDLLCCCCSMVSQRNKIRP
Molecule | lacZ reporter activity
B1 (RNF115 RING domain) | 0
KITELNPHLMCALCGGYFIDATTIVECLHSFCKTCIVRYLETNKYCPMCDVQVHKTRPLL (PCGF2 RING domain (UniProt P35227)) | 7440
B2 (TRIM2 RING domain) | 0
B3 (TRIM68 RING domain) | 0
B4 (RNF130 RING domain) | 0
PLRRLQEEKLCKICMDRHIAVVFIPCGHLVTCKQCAEAVDRCPMCSAVIDFKQRVF (BIRC8 RING domain (UniProt Q96P09)) | 0
B5 (RNF10 RING domain) | 0
GSEEEEIPFRCFICRQAFQNPVVTKCRHYFCESCALEHFRATPRCYICDQPTGGIFNPA (RNF113B RING domain (UniProt Q8IZP6)) | 0
B6 (RNF11 RING domain) | 0
B7 (TRIM47 RING domain) | 0
B8 (PJA2 RING domain) | 0
B9 (RFPL3 RING domain) | 0

Sample 3
Target: Interferon regulatory factor 5, full length, phosphomimetic (IRF5, Homo sapiens, UniProt Q13568-2, residues 1-514, K96S/S451D/S453D/S456D/S462D)
Method: protein-binding microarray
Form: double-stranded DNA, one strand shown
Sample: in vitro
Concentration: 250 nM
Notes: 60-bp whole probe
Added: salmon DNA 0.4 mg/ml
Baseline: random background probes
Direction: higher = stronger binding
Constant ends, left off below: GCCTAGCAC … GTCTTGATTCGCTTGACGCTGCTG
Oligonucleotide | log fluorescence [z-score]
TTAGGTATCGACGATCGGTTAGTGCTA | 2.57
ATAGATTTCAGTCTCGATTAGTGCTAG | 2.75
TTAGGTCTCGGATTGGGTTAGTGCTAG | 0.22
TTAGATTTCAGTCTCGGTTAGTGCTAG | 3.22
TTAGGTATCGGGGATCGGTTAGTGCTA | 1.7
GACGGTTTCGGTCTCGCGACGTGCTAG | 9.73
GACGGTATCGACTTTCGAGACGTGCTA | 6.26
CTTGCTTTCCAATTCTCTTTGTGCTAG | 0.85
CTTGCTTTTTAGATCGTCCCGTGCTAG | 0.508
GACGGACTGGACTTTCAGGACGTGCTA | 0.476
GAGGGACTGCTTATCCTGACGTGCTAG | -0.554
GAGGATATCGGGACTGGAGACGTGCTA | 0.189
TCAACTTTGAATTAGAAACTGTGCTAG | 0.327
TTAGGTATCCTTTTCCTTAAGTGCTAG | 0.733
TTAGGTTTCGACTGTCGGTTAGTGCTA | 7.03
TTAGGTAGCGGTATCGGTTAGTGCTAG | 4.16
TAAGGTATCGGTCTCGGTTAGTGCTAG | 5.1

Sample 4
Target: Fragile X messenger ribonucleoprotein 1, C-terminal low-complexity region (Fmr1, Mus musculus, UniProt P35922)
Method: RNA Bind-n-Seq
Form: RNA
Sample: in vitro
Concentration: 200 nM
Notes: whole 134-nt RNA, ends assumed
Added: 150 mM KCl
Baseline: input library
Direction: higher = stronger binding
Oligonucleotide | log2 enrichment
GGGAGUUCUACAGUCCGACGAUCGUCCUGUGCUACACAUCGUAUGUACCGAAUCGGGGAAAAGGGAAAAGGGGAAAAGGGGAAAGUAUUAUGUUACGCCGUUCGGAUCUGCACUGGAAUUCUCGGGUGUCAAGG | 0.346
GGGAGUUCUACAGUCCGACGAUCAGUCCUGUGCUACACAUCGUAUGUACCGAAUCGGGUUUUUGGGUUUUUGGGUUUUUGGAAAGUAUUAUGUUACGCCGUUCGGAUCUGCACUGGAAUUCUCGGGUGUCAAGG | -0.206
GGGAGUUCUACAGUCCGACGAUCUGGCCCUGGUGGCAUGCGGGGAGGAAGAGGUGGCCUCAUGGAUCGUGGUGGUCCCGGUGGAAUGUUCAGAGGUGGCCAUGGUGGAGACAGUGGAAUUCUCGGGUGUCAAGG | -0.15
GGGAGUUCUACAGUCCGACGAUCUAACUUUAGGGGAGGAUCUGAUGGAUAUGGCAGUGGACGUGGAUUUGGGGAUGGCUAUAAUGGGUAUGGAGGAGGACCUGGAGGUGGCAAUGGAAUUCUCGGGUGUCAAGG | 0.349
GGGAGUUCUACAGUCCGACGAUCCUCAAGUCCUGUGCUACACAUCGUAUGUACCGAAUCGGGUGGGUUUGGGUGGGAAAGUAUUAUGUUACGCCGUUCGGAUCUGCACUUCCAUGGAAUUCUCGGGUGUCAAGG | 1.22
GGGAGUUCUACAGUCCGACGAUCUCAAGUCCUGUGCUACACAUCGUAUGUACCGAAUCGGAGGAAAAAGGAAAAAGGAAAGUAUUAUGUUACGCCGUUCGGAUCUGCACUUCCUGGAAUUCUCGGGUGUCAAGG | -0.848
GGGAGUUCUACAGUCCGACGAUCUUGAGAAGAAGCAAAAAGAGAUGGAUGAAGCUGCUACGGUGAGAGAAAACCCACUAUCGAUUCCACUCACCACUUACCUCCUUCCCUUACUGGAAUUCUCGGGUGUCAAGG | 0.245
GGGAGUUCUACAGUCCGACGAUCCCUCAAGUCCUGUGCUACACAUCGUAUGUACCGAAUCGGAGGGGAGGGAGGGGAAAGUAUUAUGUUACGCCGUUCGGAUCUGCACUUCCAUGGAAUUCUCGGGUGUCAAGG | 1.39
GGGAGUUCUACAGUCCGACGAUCAAGUCCUGUGCUACACAUCGUAUGUACCGAAUCGGUUUUUUUGGUGGAAAAAAAGGAAAGUAUUAUGUUACGCCGUUCGGAUCUGCACUUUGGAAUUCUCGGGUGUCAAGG | -0.898
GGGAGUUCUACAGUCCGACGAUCUCAAGUCCUGUGCUACACAUCGUAUGUACCGAAUCGGAAAGGAAAGGAAAAAGGAAAGUAUUAUGUUACGCCGUUCGGAUCUGCACUUCCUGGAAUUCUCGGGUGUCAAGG | -0.583
